Results of several laboratories.
Lines come from different studies, so protocols differ. Numbers after ± are the reported error.
UCHL1: Ubiquitin carboxyl-terminal hydrolase isozyme L1 (UCHL1, Homo sapiens, UniProt P09936)
Chain of UniProt P09936 (whole entry, looked up): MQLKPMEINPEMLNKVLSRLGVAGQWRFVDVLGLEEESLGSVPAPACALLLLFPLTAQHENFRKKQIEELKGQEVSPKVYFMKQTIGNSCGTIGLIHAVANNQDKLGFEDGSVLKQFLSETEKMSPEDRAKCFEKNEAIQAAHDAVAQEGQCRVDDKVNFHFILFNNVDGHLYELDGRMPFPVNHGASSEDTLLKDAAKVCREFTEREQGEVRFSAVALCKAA

| Structure (SMILES) | tested on | test | test system | setting | endpoint | value |
| --- | --- | --- | --- | --- | --- | --- |
| CCC[C@H](NC(=O)C1CN(C)C1)c1ncc(-c2cc3ccccc3nc2OC)[nH]1 | HIV-1 | HIV latency reversal | Jurkat 2C4 latent HIV provirus |  | EC50 | > 40 µM |
| CCCC(=O)OCSc1ccccc1C(=O)NCCOc1ccnc2ccc(OC)cc12 | HIV-1 | virus-induced cytopathic effect, inhibitor, XTT | CEM-SS, RF | 6 days | EC50 | 7.17 ± 2.94 µM |
| O=C1Nc2ccc(Cl)cc2[C@@](C#CC2CC2)(C(F)(F)F)O1 | HIV-1 | viral replication, MTT | MT4, IIIB wild type |  | EC50 | 0.0019 ± 0.0009 µM |
| C#CC(C)(CC)NS(=O)(=O)c1cc(Cl)c(C)cc1OC (stereo not drawn) | UCHL1 | covalent, intact protein LC-MS |  | 12.5 µM | labelling | 9.11% |
| COc1ccc(CN2CCCN(c3ccc(S(=O)(=O)Nc4ccccc4)cc3[N+](=O)[O-])CC2)cc1 | HIV-1 | viral cytopathic effect, MTT | MT4, IIIB |  | EC50 | 24 µM |
| CCCC(=O)OCSc1ccccc1C(=O)NCCn1cc(C(=O)NCc2nc(-c3ccccn3)no2)c(=O)c2cc3c(cc21)OCO3 | HIV-1 | virus-induced cytopathic effect, inhibitor, XTT | CEM-SS, RF | 6 days | EC50 | 1.51 ± 0.27 µM |
| COCC/N=c1/scc(-c2cccs2)n1/N=C/c1cc(Br)c(O)c(OC)c1 | HIV-1 | viral cytopathic effect, MTT | MT4, IIIB |  | EC50 | > 15 µM |
| Cc1ccnc2c1NC(=O)c1cccnc1N2C1CC1 | HIV-1 | viral replication, MTT | MT4, IIIB wild type |  | EC50 | 0.14 ± 0.07 µM |
| Cc1nc(NCCCNc2ccnc3cc(Cl)ccc23)nc(-c2cccc([N+](=O)[O-])c2)c1C(=O)OC(C)C | HIV-1 | viral replication | CCRF-CEM, IIIB |  | EC50 | > 10 µM |
| CC/N=c1/scc(-c2cc(OC)ccc2OC)n1/N=C(\C)c1ccco1 | HIV-1 | viral cytopathic effect, MTT | MT4, IIIB |  | EC50 | > 60 µM |
| CCCC(=O)OCSc1ccccc1C(=O)NCCn1ccc(=O)c2cc(OC(F)(F)F)ccc21 | HIV-1 | virus-induced cytopathic effect, inhibitor, XTT | CEM-SS, RF | 6 days | EC50 | 4.89 ± 1.43 µM |
| Cc1nn(C(C)c2nnc(Nc3ccn(Cc4ccccc4)n3)s2)c(C)c1Br (stereo not drawn) | HIV-1 | viral replication, luciferase reporter | TZM-bl, NL4-3 | 48 h | EC50 | 0.06 ± 0.02 µM |
| Cc1nnc(C(=O)NC(C)(C)c2nc(C(=O)NCc3ccc(F)cc3)c(O)c(=O)n2C)o1 | HIV-1 | infectivity of progeny virus | HEK293FT, NL4-3 |  | EC50 | > 1.5 µM |
| O=C(N/N=C/c1cc(Br)ccc1O)c1cccnc1 | HIV-1 | viral cytopathic effect, MTT | MT4, IIIB |  | EC50 | > 3 µM |
| CCCC(=O)OCSc1ccccc1C(=O)NCCn1cc(C(=O)N2CCN(C)CC2)c(=O)c2cc3c(cc21)OCO3 | HIV-1 | virus-induced cytopathic effect, inhibitor, XTT | CEM-SS, RF | 6 days | EC50 | 75.6 ± 14.4 µM |
| CCNc1nc(NCC)nc(C(=O)NN)n1 | HIV-1 | viral cytopathic effect, MTT | MT4, IIIB |  | EC50 | > 20 µM |
| Cc1cc(C#N)cc(C)c1Oc1nc(Nc2ccc(C#N)cc2)nc(N)c1Br | HIV-1 | viral replication, MTT | MT4, IIIB wild type |  | EC50 | 0.0042 ± 0.0015 µM |
| CCCC(=O)OCSc1ccccc1C(=O)NCCn1ccc(=O)c2cc3c(cc21)OCO3 | HIV-1 | virus-induced cytopathic effect, inhibitor, XTT | CEM-SS, RF | 6 days | EC50 | 1.15 ± 0.37 µM |
| COc1ccc(S(=O)(=O)N(CC(C)C)C[C@@H](O)[C@H](Cc2ccccc2)NC(=O)O[C@H]2CCC[C@]23CCO[C@H](c2ccccc2OC)C3)cc1 | HIV-1 | viral replication | MT2, LAI |  | EC50 | 0.21 µM |
| CCCC(C(=O)O)c1c(C)nc2ccc(Cl)cc2c1-c1ccccc1 (stereo not drawn) | HIV-1 | viral replication, refers to: Gag p24 | MT-4, NL4-3 | 7 days | EC50 | 7.01 ± 5.41 µM |
| CCCC(=O)OCSc1ccccc1C(=O)NCCn1cc(C(=O)NN2CCN(C)CC2)c(=O)c2cc3c(cc21)OCO3 | HIV-1 | virus-induced cytopathic effect, inhibitor, XTT | CEM-SS, RF | 6 days | EC50 | 3.02 ± 4.16 µM |
| c1ccc(/N=N/C(=N/Nc2ccccc2)c2ccccc2)cc1 | HIV-1 | viral cytopathic effect, MTT | MT4, IIIB |  | EC50 | > 5 µM |
| CCCC(=O)OCSc1ccccc1C(=O)NCCn1cc(C(=O)NCc2cccc(C)n2)c(=O)c2cc3c(cc21)OC(F)(F)O3 | HIV-1 | viral replication | human PBMC, CMU08 (CXCR4-tropic) |  | EC50 | 5.23 ± 0.37 µM |
| Cc1ccc(S(=O)(=O)c2nc(-c3ccc(F)cc3)oc2SC(C)C)cc1 | UCHL1 | covalent, intact protein LC-MS |  | 12.5 µM | labelling | 13.6% |

A few entries again:
| Structure (SMILES) | tested on | test | test system | setting | endpoint | value |
| --- | --- | --- | --- | --- | --- | --- |
| COc1ccc(CN2CCCN(c3ccc(S(=O)(=O)Nc4ccccc4)cc3[N+](=O)[O-])CC2)cc1 | HIV-1 | viral cytopathic effect, MTT | MT4, IIIB |  | EC50 | 24 µM |
| CCCC(=O)OCSc1ccccc1C(=O)NCCn1cc(C(=O)NCc2nc(-c3ccccn3)no2)c(=O)c2cc3c(cc21)OCO3 | HIV-1 | virus-induced cytopathic effect, inhibitor, XTT | CEM-SS, RF | 6 days | EC50 | 1.51 ± 0.27 µM |
| COCC/N=c1/scc(-c2cccs2)n1/N=C/c1cc(Br)c(O)c(OC)c1 | HIV-1 | viral cytopathic effect, MTT | MT4, IIIB |  | EC50 | > 15 µM |
| Cc1ccnc2c1NC(=O)c1cccnc1N2C1CC1 | HIV-1 | viral replication, MTT | MT4, IIIB wild type |  | EC50 | 0.14 ± 0.07 µM |
